{"data": "Experimental data of several laboratories", "note": "Parts stem from different laboratories: compare values within a part only. Several values in a cell are separate wells, animals, samples, runs or records.", "chain of UniProt P61075 (whole entry, looked up)": "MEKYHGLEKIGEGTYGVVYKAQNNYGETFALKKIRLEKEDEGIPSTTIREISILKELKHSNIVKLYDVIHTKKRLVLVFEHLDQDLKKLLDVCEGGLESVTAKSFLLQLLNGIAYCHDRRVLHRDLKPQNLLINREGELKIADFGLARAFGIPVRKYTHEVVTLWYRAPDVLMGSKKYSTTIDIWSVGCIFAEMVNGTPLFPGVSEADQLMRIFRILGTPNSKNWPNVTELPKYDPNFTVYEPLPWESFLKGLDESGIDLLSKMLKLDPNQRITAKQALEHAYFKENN", "chain of UniProt P62344 (whole entry, looked up)": "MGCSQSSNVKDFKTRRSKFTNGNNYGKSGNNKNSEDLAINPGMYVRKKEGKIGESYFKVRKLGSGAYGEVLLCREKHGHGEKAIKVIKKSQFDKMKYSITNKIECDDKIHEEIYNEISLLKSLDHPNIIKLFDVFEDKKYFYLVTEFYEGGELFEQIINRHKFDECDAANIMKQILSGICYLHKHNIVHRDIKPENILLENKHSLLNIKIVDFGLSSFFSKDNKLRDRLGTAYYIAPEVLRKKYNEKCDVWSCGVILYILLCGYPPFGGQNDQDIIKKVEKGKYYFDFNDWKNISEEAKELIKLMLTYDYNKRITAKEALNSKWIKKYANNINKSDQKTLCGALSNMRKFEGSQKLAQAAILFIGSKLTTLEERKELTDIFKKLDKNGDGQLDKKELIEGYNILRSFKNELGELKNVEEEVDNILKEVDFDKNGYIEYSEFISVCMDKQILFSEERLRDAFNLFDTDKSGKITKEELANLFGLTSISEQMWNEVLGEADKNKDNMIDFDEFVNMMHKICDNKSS", "chain of UniProt Q01959 (whole entry, looked up)": "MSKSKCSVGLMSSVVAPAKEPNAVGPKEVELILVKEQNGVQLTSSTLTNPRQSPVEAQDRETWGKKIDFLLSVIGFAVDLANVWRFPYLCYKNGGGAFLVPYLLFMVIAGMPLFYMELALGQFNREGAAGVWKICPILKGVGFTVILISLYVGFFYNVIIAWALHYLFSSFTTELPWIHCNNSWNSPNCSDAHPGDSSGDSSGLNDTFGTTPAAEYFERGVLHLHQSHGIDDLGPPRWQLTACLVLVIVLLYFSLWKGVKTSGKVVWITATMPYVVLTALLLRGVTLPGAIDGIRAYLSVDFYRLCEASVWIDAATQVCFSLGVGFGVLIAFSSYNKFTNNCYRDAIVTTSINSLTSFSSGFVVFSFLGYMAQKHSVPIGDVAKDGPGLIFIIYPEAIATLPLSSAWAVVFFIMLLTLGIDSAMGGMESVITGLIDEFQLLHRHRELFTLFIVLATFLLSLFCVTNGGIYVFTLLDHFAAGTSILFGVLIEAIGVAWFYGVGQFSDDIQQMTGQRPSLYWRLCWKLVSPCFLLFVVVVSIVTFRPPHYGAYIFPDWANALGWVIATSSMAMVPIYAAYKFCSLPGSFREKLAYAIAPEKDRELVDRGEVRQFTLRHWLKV"}
{"data": "Block 1", "target": "DNA polymerase theta, ATPase domain (POLQ, Homo sapiens, UniProt O75417)", "effect on": "enzyme activity", "mode": "inhibitor", "tested at": "77 µM", "relative to": "untreated", "chain of UniProt O75417 (whole entry, unmodified, looked up)": "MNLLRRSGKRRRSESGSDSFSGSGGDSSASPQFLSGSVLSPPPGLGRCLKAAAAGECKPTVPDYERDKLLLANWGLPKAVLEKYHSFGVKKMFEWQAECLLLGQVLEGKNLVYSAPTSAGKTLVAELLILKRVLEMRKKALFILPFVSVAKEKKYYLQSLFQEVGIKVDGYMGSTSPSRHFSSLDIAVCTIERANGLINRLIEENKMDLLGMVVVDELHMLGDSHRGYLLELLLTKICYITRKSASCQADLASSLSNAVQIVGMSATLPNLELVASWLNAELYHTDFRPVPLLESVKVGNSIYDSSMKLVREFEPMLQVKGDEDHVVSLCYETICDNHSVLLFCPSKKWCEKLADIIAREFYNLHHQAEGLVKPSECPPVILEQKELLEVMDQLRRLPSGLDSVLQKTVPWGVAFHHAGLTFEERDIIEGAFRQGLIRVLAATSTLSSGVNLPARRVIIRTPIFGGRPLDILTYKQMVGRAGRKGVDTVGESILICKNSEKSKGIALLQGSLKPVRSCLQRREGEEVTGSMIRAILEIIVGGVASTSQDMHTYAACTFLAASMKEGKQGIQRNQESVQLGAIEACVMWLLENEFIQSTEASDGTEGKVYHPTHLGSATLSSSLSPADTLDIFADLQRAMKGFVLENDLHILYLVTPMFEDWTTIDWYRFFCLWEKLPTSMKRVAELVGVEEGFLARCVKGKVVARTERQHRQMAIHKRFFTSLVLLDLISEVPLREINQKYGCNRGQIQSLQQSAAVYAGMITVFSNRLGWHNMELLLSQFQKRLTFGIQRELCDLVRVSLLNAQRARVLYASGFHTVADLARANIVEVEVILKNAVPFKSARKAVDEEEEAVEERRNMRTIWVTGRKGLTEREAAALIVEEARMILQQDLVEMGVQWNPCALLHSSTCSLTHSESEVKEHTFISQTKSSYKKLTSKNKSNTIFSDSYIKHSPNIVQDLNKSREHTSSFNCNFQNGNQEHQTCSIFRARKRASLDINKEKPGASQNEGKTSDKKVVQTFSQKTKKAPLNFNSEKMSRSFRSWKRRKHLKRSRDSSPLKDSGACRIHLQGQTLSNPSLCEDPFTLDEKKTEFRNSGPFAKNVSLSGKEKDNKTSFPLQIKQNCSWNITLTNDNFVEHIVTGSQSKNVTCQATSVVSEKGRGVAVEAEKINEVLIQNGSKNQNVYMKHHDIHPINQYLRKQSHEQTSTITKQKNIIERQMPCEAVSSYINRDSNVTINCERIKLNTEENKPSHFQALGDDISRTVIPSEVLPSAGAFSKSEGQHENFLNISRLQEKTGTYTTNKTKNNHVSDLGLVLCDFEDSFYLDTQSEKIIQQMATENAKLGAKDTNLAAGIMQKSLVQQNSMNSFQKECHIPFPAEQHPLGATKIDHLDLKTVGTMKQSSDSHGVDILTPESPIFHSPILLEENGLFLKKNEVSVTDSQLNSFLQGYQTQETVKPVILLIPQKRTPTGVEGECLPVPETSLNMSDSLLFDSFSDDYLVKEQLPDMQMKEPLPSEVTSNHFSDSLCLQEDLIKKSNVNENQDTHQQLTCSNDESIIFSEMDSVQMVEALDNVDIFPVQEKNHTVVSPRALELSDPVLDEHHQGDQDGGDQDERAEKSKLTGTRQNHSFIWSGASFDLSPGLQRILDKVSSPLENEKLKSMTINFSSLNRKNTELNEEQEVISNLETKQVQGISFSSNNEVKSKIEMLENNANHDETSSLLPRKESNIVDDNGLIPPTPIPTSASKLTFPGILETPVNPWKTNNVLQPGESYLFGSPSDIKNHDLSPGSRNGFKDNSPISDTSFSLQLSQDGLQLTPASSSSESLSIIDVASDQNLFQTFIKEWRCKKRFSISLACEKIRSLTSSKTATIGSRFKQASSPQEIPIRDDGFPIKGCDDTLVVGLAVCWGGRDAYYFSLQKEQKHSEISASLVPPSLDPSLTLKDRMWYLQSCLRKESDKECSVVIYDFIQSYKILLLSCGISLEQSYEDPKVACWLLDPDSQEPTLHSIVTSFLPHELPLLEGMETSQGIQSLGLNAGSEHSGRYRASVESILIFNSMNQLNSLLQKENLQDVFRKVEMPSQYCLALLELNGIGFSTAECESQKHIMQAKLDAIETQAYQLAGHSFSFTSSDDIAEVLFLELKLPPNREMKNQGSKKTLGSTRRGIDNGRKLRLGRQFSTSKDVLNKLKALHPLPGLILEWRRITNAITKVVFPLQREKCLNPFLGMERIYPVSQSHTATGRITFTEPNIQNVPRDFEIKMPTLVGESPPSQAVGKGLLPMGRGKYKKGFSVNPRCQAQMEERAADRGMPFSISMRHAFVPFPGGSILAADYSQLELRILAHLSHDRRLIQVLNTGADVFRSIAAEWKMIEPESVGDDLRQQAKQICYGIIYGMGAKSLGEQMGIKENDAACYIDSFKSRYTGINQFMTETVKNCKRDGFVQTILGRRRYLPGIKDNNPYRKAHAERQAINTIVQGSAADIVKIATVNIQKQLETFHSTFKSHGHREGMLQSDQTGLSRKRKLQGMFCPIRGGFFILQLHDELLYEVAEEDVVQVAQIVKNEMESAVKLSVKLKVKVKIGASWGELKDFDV"}
{"SMILES": "C=C1[C@@H]2CC[C@H]3[C@]4(C)C[C@H](O[C@H]5O[C@H](CO)[C@@H](OS(=O)(=O)O)[C@H](OS(=O)(=O)O)[C@H]5OC(=O)CC(C)C)C[C@@H](C(=O)O)[C@H]4CC[C@]3(C2)[C@H]1O", "remaining activity": "109%"}
{"SMILES": "C[C@@H]1CC[C@H]2[C@@H](C)C(=O)O[C@@H]3O[C@@]4(C)CC[C@@H]1[C@]32OO4", "remaining activity": "110% and 102%"}
{"SMILES": "CCC1=C[C@@H]2CN3CCc4c([nH]c5ccccc45)[C@@](C(=O)OC)(C2)[C@@H]13", "remaining activity": "99.2% and 87.5%"}
{"SMILES": "Clc1ccc(C(OCCN2CCCCC2)c2ccccc2)cc1 (centres unmarked)", "remaining activity": "94.8%"}
{"SMILES": "Cn1c(CCCC(=O)O)nc2cc(N(CCCl)CCCl)ccc21", "remaining activity": "91%"}
{"SMILES": "CCN1C[C@]2(OC(=O)c3ccccc3NC(C)=O)CC[C@H](OC)[C@]34C1[C@H](C[C@H]23)[C@@]1(O)C[C@H](OC)[C@H]2C[C@@H]4[C@]1(O)[C@H]2OC", "remaining activity": "94.4%"}
{"SMILES": "CN1[C@@H]2CC[C@H]1C[C@@H](OC(=O)c1cc(Cl)cc(Cl)c1)C2", "remaining activity": "98.9%"}
{"SMILES": "NCC[C@H](O)C(=O)N[C@@H]1C[C@H](N)[C@@H](O[C@H]2O[C@H](CN)[C@@H](O)[C@H](O)[C@H]2N)[C@H](O[C@@H]2O[C@H](CO)[C@@H](O)[C@H]2O)[C@H]1O", "remaining activity": "95.6%"}
{"SMILES": "Oc1ccc2c3c1O[C@H]1c4oc5ccccc5c4C[C@@]4(O)[C@@H](C2)N(CC2CC2)CC[C@]314", "remaining activity": "102%"}
{"data": "Block 2", "Compound": "O=C1CCC(N2Cc3c(ccc4c3OCC43CCN(Cc4ccccc4)CC3)C2=O)C(=O)N1 (centres unmarked)", "medium": "plasma", "route": "intravenous"}
{"species": "male CD-1 mouse", "dose": "1 mg/kg", "clearance": "39.7 mL/min/kg"}
{"species": "male Sprague-Dawley rat", "dose": "1 mg/kg", "clearance": "20.8 mL/min/kg"}
{"species": "Sprague Dawley rat, male", "dose": "1.0 mg/kg", "clearance": "20.1 mL/min/kg"}
{"species": "male ICR mice", "dose": "1.0 mg/kg", "clearance": "41.8 mL/min/kg and 36.8 mL/min/kg"}
{"data": "Block 3", "cell line": "HEK-293T", "effect on": "pseudovirus infection", "method": "FDA-approved drug library counter-screen", "organism": "VSV pseudotyped with VSV-G", "tested at": "10 µM", "time": "16 h", "relative to": "vehicle-treated"}
{"Structure (SMILES)": "CC(=O)N[C@H]1[C@H]([C@H](O)[C@H](O)CO)OC(C(=O)O)=C[C@@H]1N=C(N)N", "GFP-positive cells [%]": 127}
{"Structure (SMILES)": "Nc1ccn([C@@H]2CS[C@H](CO)O2)c(=O)n1", "GFP-positive cells [%]": 101}
{"Structure (SMILES)": "CC1(C)NC(=O)N(c2ccc([N+](=O)[O-])c(C(F)(F)F)c2)C1=O", "GFP-positive cells [%]": 99.6}
{"Structure (SMILES)": "CC(NCCc1ccc(O)cc1)C(O)c1ccc(O)cc1 (centres unmarked)", "GFP-positive cells [%]": 92.4}
{"Structure (SMILES)": "CC(O)(CS(=O)(=O)c1ccc(F)cc1)C(=O)Nc1ccc(C#N)c(C(F)(F)F)c1 (centres unmarked)", "GFP-positive cells [%]": 126}
{"Structure (SMILES)": "OC(c1cc(C(F)(F)F)nc2c(C(F)(F)F)cccc12)C1CCCCN1 (centres unmarked)", "GFP-positive cells [%]": 91.5}
{"Structure (SMILES)": "C[C@@H](O[C@H]1OCCN(Cc2n[nH]c(=O)[nH]2)[C@H]1c1ccc(F)cc1)c1cc(C(F)(F)F)cc(C(F)(F)F)c1", "GFP-positive cells [%]": 148}
{"Structure (SMILES)": "COc1cc(C(C)=O)ccc1OCCCN1CCC(c2noc3cc(F)ccc23)CC1", "GFP-positive cells [%]": 87.2}
{"Structure (SMILES)": "CNCC(O)c1ccc(OC(=O)C(C)(C)C)c(OC(=O)C(C)(C)C)c1 (centres unmarked)", "GFP-positive cells [%]": 111}
{"data": "Mixed results"}
{"Compound": "CN(C)c1ncnc(-c2ccc3nc(Nc4cc(CN5CCN(C(=O)CC(F)(F)F)CC5)ccn4)[nH]c3c2)c1Cl", "target or system": "Cyclin-dependent kinase 2 homolog (CRK2, Plasmodium falciparum, UniProt P61075)", "effect on": "cell-free assay", "method": "competition with immobilised ligand", "tested at": "1 µM", "endpoint": "remaining binding", "result": "85%"}
{"Compound": "CNC(=O)c1cc(C(=O)NC2CC2)cn(Cc2ccccc2)c1=O", "target or system": "normal-adjacent epithelium patient-derived organoids sample E", "method": "CellTiter-Glo", "tested at": "1 µM", "relative to": "DMSO", "endpoint": "viability", "result": "88%"}
{"Compound": "CC(=O)C1=C(C)N(c2cccc(C(F)(F)F)c2)C(=O)N[C@@H]1c1ccc(C#N)nc1", "target or system": "Calcium-dependent protein kinase 1 (CDPK1, Plasmodium falciparum, UniProt P62344)", "effect on": "cell-free assay", "method": "competition with immobilised ligand", "tested at": "1 µM", "endpoint": "remaining binding", "result": "94.8%"}
{"Compound": "O=C1NC(c2ccccn2)Sc2ccccc21 (centres unmarked)", "target or system": "Sodium-dependent dopamine transporter (SLC6A3, Homo sapiens, UniProt Q01959)", "effect on": "ligand displacement", "tested at": "10 µM", "endpoint": "inhibition", "result": "-2.05%"}
{"note": "Some of these lines once more (block 3):"}
{"Structure (SMILES)": "CC(O)(CS(=O)(=O)c1ccc(F)cc1)C(=O)Nc1ccc(C#N)c(C(F)(F)F)c1 (centres unmarked)", "GFP-positive cells [%]": 126}
{"Structure (SMILES)": "COc1cc(C(C)=O)ccc1OCCCN1CCC(c2noc3cc(F)ccc23)CC1", "GFP-positive cells [%]": 87.2}
{"Structure (SMILES)": "CC(=O)N[C@H]1[C@H]([C@H](O)[C@H](O)CO)OC(C(=O)O)=C[C@@H]1N=C(N)N", "GFP-positive cells [%]": 127}
{"Structure (SMILES)": "Nc1ccn([C@@H]2CS[C@H](CO)O2)c(=O)n1", "GFP-positive cells [%]": 101}
